Assay results gathered from unrelated publications.
Each line is one published result; not all experiments were run side by side.
Chain of UniProt P42336 (whole entry, looked up): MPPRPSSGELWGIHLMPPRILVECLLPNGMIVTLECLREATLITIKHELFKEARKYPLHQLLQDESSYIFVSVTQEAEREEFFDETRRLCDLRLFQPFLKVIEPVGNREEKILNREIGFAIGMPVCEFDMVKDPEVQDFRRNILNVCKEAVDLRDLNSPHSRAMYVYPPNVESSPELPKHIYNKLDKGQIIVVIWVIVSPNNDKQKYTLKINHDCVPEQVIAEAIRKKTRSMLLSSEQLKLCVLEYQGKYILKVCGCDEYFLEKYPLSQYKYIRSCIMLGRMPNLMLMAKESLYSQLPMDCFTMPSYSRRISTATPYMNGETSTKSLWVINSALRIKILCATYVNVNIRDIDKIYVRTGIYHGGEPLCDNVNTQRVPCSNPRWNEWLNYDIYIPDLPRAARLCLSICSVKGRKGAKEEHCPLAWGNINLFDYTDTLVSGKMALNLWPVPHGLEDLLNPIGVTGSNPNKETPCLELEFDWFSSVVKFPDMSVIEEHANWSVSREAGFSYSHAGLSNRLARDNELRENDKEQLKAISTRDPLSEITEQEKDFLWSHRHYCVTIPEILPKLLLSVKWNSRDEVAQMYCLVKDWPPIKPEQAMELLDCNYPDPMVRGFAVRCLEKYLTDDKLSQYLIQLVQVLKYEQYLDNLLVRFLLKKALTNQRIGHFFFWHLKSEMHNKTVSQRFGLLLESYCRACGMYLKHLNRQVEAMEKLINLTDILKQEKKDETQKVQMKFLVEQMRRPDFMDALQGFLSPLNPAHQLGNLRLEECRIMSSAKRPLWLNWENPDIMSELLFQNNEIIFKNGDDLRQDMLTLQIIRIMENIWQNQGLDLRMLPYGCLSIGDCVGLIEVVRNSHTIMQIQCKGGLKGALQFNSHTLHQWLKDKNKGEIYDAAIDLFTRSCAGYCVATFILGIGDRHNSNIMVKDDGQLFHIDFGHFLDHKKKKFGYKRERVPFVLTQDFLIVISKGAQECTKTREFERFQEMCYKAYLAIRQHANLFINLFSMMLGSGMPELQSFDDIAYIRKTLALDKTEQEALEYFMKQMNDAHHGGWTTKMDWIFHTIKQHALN
Chain of UniProt P27361 (whole entry, looked up): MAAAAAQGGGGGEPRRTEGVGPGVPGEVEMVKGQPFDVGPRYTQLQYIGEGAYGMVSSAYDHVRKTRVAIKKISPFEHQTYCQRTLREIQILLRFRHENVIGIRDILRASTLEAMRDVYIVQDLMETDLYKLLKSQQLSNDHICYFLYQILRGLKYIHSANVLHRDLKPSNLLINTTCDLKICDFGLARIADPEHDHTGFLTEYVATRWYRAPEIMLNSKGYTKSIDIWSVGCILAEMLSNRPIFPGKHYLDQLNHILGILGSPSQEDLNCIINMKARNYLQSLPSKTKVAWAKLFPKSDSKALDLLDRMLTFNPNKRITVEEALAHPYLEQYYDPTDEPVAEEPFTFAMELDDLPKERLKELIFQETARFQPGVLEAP
Chain of UniProt P18031 (whole entry, unmodified, looked up): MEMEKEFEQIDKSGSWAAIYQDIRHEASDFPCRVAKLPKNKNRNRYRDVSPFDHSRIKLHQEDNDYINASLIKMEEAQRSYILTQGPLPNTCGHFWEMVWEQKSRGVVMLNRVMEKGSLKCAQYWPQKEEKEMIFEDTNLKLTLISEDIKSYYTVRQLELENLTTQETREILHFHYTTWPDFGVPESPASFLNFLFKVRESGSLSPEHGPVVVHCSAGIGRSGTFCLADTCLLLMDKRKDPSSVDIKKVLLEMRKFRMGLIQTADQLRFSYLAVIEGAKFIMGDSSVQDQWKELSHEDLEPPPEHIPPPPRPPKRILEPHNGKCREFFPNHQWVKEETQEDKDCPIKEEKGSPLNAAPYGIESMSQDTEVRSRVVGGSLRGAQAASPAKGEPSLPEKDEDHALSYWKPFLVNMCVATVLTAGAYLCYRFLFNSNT
Chain of UniProt Q6XUX3 (whole entry, looked up): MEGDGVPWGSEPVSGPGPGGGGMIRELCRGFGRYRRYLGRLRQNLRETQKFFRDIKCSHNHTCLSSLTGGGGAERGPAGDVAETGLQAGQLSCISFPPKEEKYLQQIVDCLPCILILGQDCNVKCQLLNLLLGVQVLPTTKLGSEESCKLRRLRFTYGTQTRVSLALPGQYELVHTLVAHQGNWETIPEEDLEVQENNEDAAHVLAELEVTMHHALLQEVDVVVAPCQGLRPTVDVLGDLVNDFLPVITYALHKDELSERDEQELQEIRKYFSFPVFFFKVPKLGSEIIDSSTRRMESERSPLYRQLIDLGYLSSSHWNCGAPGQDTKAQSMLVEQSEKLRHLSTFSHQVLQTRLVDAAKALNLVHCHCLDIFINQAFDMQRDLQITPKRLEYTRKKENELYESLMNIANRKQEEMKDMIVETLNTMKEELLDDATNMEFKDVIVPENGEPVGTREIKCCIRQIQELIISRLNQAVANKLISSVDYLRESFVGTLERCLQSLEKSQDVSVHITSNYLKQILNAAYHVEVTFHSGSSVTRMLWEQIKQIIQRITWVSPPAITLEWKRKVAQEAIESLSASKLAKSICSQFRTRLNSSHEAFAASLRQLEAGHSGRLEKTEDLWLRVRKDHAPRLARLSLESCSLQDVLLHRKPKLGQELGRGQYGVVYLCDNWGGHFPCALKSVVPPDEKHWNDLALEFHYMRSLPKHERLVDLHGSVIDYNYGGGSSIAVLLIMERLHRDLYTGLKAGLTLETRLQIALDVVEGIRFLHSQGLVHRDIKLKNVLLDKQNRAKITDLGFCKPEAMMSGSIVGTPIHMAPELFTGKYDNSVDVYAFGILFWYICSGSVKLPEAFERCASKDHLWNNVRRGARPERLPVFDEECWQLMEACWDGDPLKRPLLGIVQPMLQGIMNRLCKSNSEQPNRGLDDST
Chain of UniProt O33336 (whole entry, looked up): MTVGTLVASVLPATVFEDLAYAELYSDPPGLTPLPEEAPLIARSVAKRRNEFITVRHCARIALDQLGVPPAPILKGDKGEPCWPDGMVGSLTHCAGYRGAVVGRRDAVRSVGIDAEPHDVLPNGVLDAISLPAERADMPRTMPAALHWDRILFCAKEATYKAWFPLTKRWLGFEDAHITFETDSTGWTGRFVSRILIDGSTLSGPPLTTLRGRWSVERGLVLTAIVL
Chain of UniProt O60741 (whole entry, looked up): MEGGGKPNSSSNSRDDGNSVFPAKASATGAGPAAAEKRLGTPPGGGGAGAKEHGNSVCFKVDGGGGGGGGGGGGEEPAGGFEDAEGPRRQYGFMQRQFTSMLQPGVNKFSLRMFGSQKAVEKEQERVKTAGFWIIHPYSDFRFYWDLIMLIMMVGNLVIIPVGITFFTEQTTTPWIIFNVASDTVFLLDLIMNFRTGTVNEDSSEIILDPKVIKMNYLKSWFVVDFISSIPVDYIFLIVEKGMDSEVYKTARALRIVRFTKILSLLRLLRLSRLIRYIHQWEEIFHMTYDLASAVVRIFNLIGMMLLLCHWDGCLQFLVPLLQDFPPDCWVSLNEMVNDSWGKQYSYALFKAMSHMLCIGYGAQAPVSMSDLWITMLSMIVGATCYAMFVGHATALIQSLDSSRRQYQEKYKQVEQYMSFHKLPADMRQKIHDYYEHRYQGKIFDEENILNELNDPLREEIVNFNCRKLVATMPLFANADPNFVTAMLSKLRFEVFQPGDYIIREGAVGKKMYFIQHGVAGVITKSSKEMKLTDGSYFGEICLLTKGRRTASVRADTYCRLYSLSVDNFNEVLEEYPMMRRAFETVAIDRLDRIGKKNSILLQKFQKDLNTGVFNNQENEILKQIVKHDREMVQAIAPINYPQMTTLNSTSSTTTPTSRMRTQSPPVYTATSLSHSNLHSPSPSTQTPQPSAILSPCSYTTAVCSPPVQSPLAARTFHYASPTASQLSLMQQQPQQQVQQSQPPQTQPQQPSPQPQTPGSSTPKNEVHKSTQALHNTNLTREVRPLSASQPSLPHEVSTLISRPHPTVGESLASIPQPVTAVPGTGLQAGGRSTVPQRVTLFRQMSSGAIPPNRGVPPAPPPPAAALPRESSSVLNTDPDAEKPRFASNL
Chain of UniProt Q07869 (whole entry, looked up): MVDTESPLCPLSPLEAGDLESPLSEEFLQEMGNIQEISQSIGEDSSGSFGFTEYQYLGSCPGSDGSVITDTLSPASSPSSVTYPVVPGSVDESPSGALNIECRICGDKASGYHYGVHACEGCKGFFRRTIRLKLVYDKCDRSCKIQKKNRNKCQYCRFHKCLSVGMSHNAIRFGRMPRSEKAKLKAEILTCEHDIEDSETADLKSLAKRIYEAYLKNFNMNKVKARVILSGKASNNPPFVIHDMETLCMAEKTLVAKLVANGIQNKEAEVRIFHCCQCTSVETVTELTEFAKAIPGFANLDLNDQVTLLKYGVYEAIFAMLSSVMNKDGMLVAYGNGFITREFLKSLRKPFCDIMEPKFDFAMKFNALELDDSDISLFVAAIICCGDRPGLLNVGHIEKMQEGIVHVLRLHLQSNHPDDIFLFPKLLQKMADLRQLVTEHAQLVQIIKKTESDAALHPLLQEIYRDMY
Chain of UniProt P41145 (whole entry, looked up): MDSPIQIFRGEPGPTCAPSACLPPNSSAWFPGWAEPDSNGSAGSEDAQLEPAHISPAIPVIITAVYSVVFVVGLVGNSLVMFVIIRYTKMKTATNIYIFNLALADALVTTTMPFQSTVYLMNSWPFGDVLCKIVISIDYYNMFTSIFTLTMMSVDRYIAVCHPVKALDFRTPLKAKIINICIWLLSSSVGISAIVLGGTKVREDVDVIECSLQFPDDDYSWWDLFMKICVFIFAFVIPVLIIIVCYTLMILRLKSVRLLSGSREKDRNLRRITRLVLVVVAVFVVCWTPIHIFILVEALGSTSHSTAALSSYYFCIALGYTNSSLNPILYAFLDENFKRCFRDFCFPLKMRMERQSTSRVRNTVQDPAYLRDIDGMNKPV

`CN1CC[C@]2(C)c3cc(OC(=O)Nc4ccccc4)ccc3N(C)[C@H]12` has an inhibition of 0% (CHRM5 (Homo sapiens, UniProt P08912); ligand displacement, radioligand; 10 µM).
For `Nc1ccncc1`, the inhibition was -220% (Potassium/sodium hyperpolarization-activated cyclic nucleotide-gated channel 1 (Homo sapiens, UniProt O60741); ion current, inhibitor; 3 µM).
`Cc1nn(C)cc1-c1nc2c(N3CCN(Cc4ccc(Cl)cc4)CC3)c(Cl)cnc2[nH]1` has a remaining binding of 100% (DSTYK (Homo sapiens, UniProt Q6XUX3); binding, competition with immobilised ligand; 1 µM).
The remaining binding of `[2H]c1c([2H])c([C@]2([2H])CCCN2C(=O)C(C)(C)Oc2ccc3cn[nH]c3c2)c([2H])c([2H])c1C([2H])([2H])[2H]` is reported as 61% (YES1 (Homo sapiens, UniProt P07947); binding, competition with immobilised ligand; 1 µM).
`COc1ncccc1-c1cnn2ccc(N3CCN(C(=O)OC(C)C)CC3)nc12` has a remaining binding of 91% (STK36 (Homo sapiens, UniProt Q9NRP7); binding, competition with immobilised ligand; 1 µM).
`Nc1ncc(-c2nc(N3CCOCC3)nc(N3CCOCC3)n2)c(C(F)F)n1` has a remaining binding of 0% (PIK3CA (Homo sapiens, UniProt P42336); binding, competition with immobilised ligand; 10 µM).
With `CCCCC(CC)COC(=O)c1ccccc1C(=O)O` (centres unmarked) the Emax was 60% (PPARA (Homo sapiens, UniProt Q07869); reporter gene, agonist, luciferase).
`CNC1(c2ccccc2Cl)CCCCC1=O` (racemic) gave an inhibition of 1% (MAPK3 (Homo sapiens, UniProt P27361); enzyme activity, inhibitor; 30 µM).
With `Brc1ccc2c(c1)C(c1ccccn1)=NCc1c(-c3cnco3)ncn1-2` the inhibition was 61.6% (OPRK1 (Homo sapiens, UniProt P41145); ligand displacement, radioligand; 10 µM).
For `NC(=S)c1cncc(Cn2c(=S)[nH]c3ccc(Cl)cc3c2=O)c1`, the IC50 was 160 nM (4'-phosphopantetheinyl transferase PptT (Mycobacterium tuberculosis, UniProt O33336); enzyme activity, inhibitor, FP).
With `C=C(C)[C@@H]1CC[C@@H](C)[C@@H]2CCC(C)=C[C@@H]21` the ΔTm was less than 1 °C (PTPN1 (Homo sapiens, UniProt P18031); thermal stability, DSF).

Excerpt of the above:
With `CCCCC(CC)COC(=O)c1ccccc1C(=O)O` (centres unmarked) the Emax was 60% (PPARA (Homo sapiens, UniProt Q07869); reporter gene, agonist, luciferase).
